{"data": "Assay results gathered from unrelated publications", "note": "Numbered parts are unrelated; each lists some results of a single study."}
{"data": "Study 1", "target": "Histone acetyltransferase KAT6A, winged helix 2, GST fusion (KAT6A, Homo sapiens, UniProt Q92794, residues 85-181)", "method": "protein binding microarray", "molecule type": "double-stranded DNA, one strand shown", "matrix": "in vitro", "tested at": "not given", "notes": "8-mer, flanks averaged, mean of 2 arrays, mostly near background", "baseline": "not given", "direction": "higher = stronger binding", "Construct (chain)": "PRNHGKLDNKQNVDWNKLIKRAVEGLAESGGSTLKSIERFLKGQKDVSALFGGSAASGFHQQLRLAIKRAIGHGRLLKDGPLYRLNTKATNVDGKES"}
{"Oligonucleotide": "GCCACTCC", "E-score": -0.0422}
{"Oligonucleotide": "CGTGCGAG", "E-score": 0.177}
{"Oligonucleotide": "ATTTCCCA", "E-score": 0.172}
{"Oligonucleotide": "GCGATCCA", "E-score": 0.0387}
{"Oligonucleotide": "CAGAGGCA", "E-score": 0.128}
{"Oligonucleotide": "ATATCAGG", "E-score": -0.0764}
{"Oligonucleotide": "AGCTGTCA", "E-score": -0.155}
{"Oligonucleotide": "CCCCTACC", "E-score": -0.0394}
{"Oligonucleotide": "CCCAATGA", "E-score": -0.0499}
{"Oligonucleotide": "ACCCTAGA", "E-score": 0.00749}
{"Oligonucleotide": "TGGAGGAA", "E-score": 0.0346}
{"Oligonucleotide": "CATCGATC", "E-score": -0.152}
{"Oligonucleotide": "ATAACGCA", "E-score": -0.0155}
{"Oligonucleotide": "CCTCTTCG", "E-score": 0.149}
{"Oligonucleotide": "ATAGAATC", "E-score": -0.00466}
{"Oligonucleotide": "GAGCTCTA", "E-score": -0.0632}
{"Oligonucleotide": "CGGTTTCA", "E-score": -0.0067}
{"Oligonucleotide": "ATTCGCTC", "E-score": 0.105}
{"Oligonucleotide": "ACGTCTTA", "E-score": -0.115}
{"Oligonucleotide": "ACACTGGT", "E-score": -0.193}
{"Oligonucleotide": "CGCACGCG", "E-score": 0.0982}
{"Oligonucleotide": "AGGATCGG", "E-score": -0.104}
{"Oligonucleotide": "AAGGTGGC", "E-score": -0.0561}
{"Oligonucleotide": "AGCGCGCG", "E-score": 0.208}
{"data": "Study 2", "target": "Sal-like protein 4, full length isoform A (SALL4, Homo sapiens, UniProt Q9UJQ4, residues 1-1053)", "method": "universal PBM", "molecule type": "double-stranded DNA, one strand shown", "matrix": "in vitro", "tested at": "600 nM", "notes": "8-mer, flanks averaged, mean of replicates", "direction": "higher = stronger binding", "chain of UniProt Q9UJQ4 (whole entry, looked up)": "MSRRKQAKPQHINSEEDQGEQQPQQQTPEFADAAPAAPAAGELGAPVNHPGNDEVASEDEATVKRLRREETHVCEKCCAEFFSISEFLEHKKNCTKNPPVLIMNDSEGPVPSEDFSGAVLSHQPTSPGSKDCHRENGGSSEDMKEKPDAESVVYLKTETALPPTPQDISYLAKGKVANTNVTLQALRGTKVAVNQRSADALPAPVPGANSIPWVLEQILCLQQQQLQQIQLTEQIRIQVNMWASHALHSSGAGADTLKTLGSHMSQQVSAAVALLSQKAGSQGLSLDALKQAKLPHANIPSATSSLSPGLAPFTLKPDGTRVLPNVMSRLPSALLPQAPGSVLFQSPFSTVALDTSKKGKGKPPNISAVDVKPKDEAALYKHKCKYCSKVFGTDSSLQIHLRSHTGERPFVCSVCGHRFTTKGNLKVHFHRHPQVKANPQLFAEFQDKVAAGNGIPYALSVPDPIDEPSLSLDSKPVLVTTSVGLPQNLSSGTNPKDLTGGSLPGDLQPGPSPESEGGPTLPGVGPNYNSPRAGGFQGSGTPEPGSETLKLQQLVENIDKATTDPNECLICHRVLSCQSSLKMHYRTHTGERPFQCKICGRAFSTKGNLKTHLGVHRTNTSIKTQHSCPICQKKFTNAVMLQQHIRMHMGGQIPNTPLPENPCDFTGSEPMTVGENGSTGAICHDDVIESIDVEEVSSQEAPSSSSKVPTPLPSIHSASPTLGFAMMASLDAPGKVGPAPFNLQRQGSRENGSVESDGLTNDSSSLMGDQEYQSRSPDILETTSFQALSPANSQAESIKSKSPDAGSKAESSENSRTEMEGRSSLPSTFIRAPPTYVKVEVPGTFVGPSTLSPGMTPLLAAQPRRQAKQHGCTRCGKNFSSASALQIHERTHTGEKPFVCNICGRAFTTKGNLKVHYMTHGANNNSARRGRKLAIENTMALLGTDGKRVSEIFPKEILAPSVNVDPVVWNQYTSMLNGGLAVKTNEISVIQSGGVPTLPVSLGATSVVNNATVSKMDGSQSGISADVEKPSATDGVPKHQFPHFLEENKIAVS"}
{"Oligonucleotide": "CAGTACAG", "E-score": 0.0447}
{"Oligonucleotide": "AAGCGCTT", "E-score": 0.0878}
{"Oligonucleotide": "ACTTACTG", "E-score": 0.119}
{"Oligonucleotide": "GAGTGACA", "E-score": -0.0714}
{"Oligonucleotide": "GAACCGCC", "E-score": -0.294}
{"Oligonucleotide": "CGTCGAGC", "E-score": -0.165}
{"Oligonucleotide": "GGAATCCA", "E-score": -0.0783}
{"Oligonucleotide": "AGTTGCGC", "E-score": -0.112}
{"Oligonucleotide": "ACAGTGAA", "E-score": 0.0996}
{"Oligonucleotide": "ACCACCTA", "E-score": -0.0741}
{"Oligonucleotide": "ATGGGCTC", "E-score": -0.148}
{"Oligonucleotide": "CTAGCTGC", "E-score": -0.337}
{"Oligonucleotide": "ATGAGAGC", "E-score": -0.0119}
{"Oligonucleotide": "CGGGCGAA", "E-score": -0.16}
{"data": "Study 3", "Substance": "PhoQ, residues 284 288 289 292 302 303 GANMMA", "method": "Sort-seq", "item": "YFP reporter", "matrix": "E. coli", "notes": "PhoQ-PhoP variant library", "with": "10 µM Mg2+", "baseline": "high Mg2+ state", "direction": "higher = stronger signaling"}
{"target": "PhoP, residues 12 14 15 18 19 VGHWL (Escherichia coli, UniProt P23836)", "fold induction": 9.84}
{"target": "PhoP, residues 12 14 15 18 19 LHHYF (Escherichia coli, UniProt P23836)", "fold induction": 11.4}
{"target": "PhoP, residues 12 14 15 18 19 TPWTL (Escherichia coli, UniProt P23836)", "fold induction": 0.929}
{"target": "PhoP, residues 12 14 15 18 19 NFFVT (Escherichia coli, UniProt P23836)", "fold induction": 10.2}
{"data": "Study 4", "target": "RNA binding protein fox-1 homolog 2, RRM domain, GST-SBP tag (RBFOX2, Homo sapiens, UniProt O43251-10, residues 100-194)", "method": "RNA Bind-n-Seq", "molecule type": "RNA", "matrix": "in vitro", "tested at": "365 nM", "notes": "natural RNA segment, single round, ends assumed", "baseline": "no-protein control", "direction": "higher = stronger binding", "shared flanks, not repeated": "GGGAGUUCUACAGUCCGACGAUC … UGGAAUUCUCGGGUGCCAA", "Construct (chain)": "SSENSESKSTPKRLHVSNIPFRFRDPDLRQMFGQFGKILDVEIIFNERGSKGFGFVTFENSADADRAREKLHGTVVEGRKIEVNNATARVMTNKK"}
{"Oligonucleotide": "UGUUGACUCUCUUCCAUGCAUAUUUUAAGGAUUUGAAUCUGAUUUGAUUUGGAAAGUCAUGAAACUUGAACAGUUUCUGCAUUUCUUUUUUCCUUUGGCUGCCUUUUGUU", "RBNS enrichment (R)": 0.591}
{"Oligonucleotide": "AGGUCAACCUCACACUGAUAUGCUCCUCGACUAGAGAGGUCUCCAAGCCCAGAACAGAGACUUGAACACCAUGUCCUUAACCAAAGUCAGCUCUUCAGAGUGUAAAUGAG", "RBNS enrichment (R)": 0.344}
{"Oligonucleotide": "CUGACUUACGAAAGUUGAAUUGGGUGAGGCGGGCAAAUCACCUGAGGUCAGCAGUUUGAGACUAGCCUGGCAAACAUGAUGAAACCCUGUCUCUACUAAAAAUACAAAAA", "RBNS enrichment (R)": 0.345}
{"Oligonucleotide": "GCCUGUCCCCACUGUCUAUCCAGUGCUUACUUCAACCCUAGAGGCUGCCUUGACCCGAGGAGGCAUCUCACUGGUUCCGUACUUGUGUGUGCCCUACGCCUCACUGCUGG", "RBNS enrichment (R)": 0.34}
{"Oligonucleotide": "CCACACAGUGCGAGUCGGAGUGAGUCCCGCUGGUCCUGCCCAUGCAGGGCACAGAGCUGGCUCACCCUCUGGAAGGACAGGUCAGCAGGACUAACCAGGCAGAAGCCAUU", "RBNS enrichment (R)": 0.321}
{"Oligonucleotide": "UUCACGAGUUUGCCUAGUGCUCUGGUUUACACUAUAUGACAACUAUACUUCAGCUGUUCUUUGCCUGCACUUAUUAUAUACAUUGUUUCAUGCACAGUUAUUACAAAUCA", "RBNS enrichment (R)": 0.948}
{"Oligonucleotide": "UAGCCCAAAGGGCUGAGCCUCCUGGCCUGCCUGCCCGCCCACCCUGGGAGUCCCAGUGGUGAGGCUCAGAGAACUGCUAAGGGGAAAGAACAGCUGGAGUUUCUGUUGAU", "RBNS enrichment (R)": 0.436}
{"Oligonucleotide": "UCCUUUUAAAUCUCCCUCAAUCACAUUUGGUAGUGAUUUUUGACUUAGUCUGGUAGUCACCCAGCUUAAUAUCUAGUUAAAGCUAACCAUAGUAUACUUGUUAUAUAUUA", "RBNS enrichment (R)": 1.07}
{"note": "Excerpt of the above (study 1):"}
{"Oligonucleotide": "GCCACTCC", "E-score": -0.0422}
{"Oligonucleotide": "ATTCGCTC", "E-score": 0.105}
{"Oligonucleotide": "GAGCTCTA", "E-score": -0.0632}
{"Oligonucleotide": "ACCCTAGA", "E-score": 0.00749}
{"Oligonucleotide": "ATATCAGG", "E-score": -0.0764}
{"Oligonucleotide": "CATCGATC", "E-score": -0.152}
